Measurements from different studies.
Each line is one published result; not all experiments were run side by side. Values joined by “and” are separate records of one study, mostly repeats; a detail may differ. ± marks the error that the study gave.
Chain of UniProt P20813 (whole entry, looked up): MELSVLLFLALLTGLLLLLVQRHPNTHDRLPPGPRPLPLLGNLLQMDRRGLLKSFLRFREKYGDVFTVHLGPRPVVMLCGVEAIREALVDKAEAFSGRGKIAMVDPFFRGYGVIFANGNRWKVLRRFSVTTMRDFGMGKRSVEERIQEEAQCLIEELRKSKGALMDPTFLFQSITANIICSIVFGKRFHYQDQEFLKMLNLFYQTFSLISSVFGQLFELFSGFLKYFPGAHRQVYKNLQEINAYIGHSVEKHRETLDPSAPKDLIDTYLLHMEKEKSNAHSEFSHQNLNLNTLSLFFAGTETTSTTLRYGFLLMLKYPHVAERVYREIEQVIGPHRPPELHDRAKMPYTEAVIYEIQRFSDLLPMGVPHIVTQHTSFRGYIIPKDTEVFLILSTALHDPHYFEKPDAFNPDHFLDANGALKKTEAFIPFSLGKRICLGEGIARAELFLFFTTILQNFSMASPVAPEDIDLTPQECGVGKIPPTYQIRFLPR

Compound | target or system | assay | test system | conditions | scale | quantity | value
CCc1ccc(CC/C=C/c2ccc3c(c2)C(=O)CC3)cc1 |  |  | Sprague-Dawley rat, female, serum | oral, 120 mg/kg/day, 14 days |  | potassium | 4.38 mM
COc1cccc(-c2n[nH]c(SCc3ccccn3)n2)c1OC | Escherichia coli | Ames test, preincubation | WP2 uvrA | 0.50 mg/plate, without S9 |  | revertant colonies per plate | 10
CC(=O)OC[C@H]1O[C@@H](Oc2cc(O)cc3cc4oc(C)cc(=O)c4c(O)c23)[C@H](O)[C@@H](O)[C@@H]1O | HepaRG co-cultured with HK-2 | MTT |  | 66.67 µM, 24 h | relative to: untreated control | cell viability | 131 ± 9.98%
O=[N+]([O-])c1ccc(N2CCN(CCC(O)c3ccc(F)cc3)CC2)c(C(F)(F)F)c1 (stereo not shown) | Salmonella typhimurium | SOS response, SOS/umu test | TA1535/pSK1002, TGA medium | 0.000488 mg/mL, 4 h, together with: 10% rat liver S9 | relative to: untreated | induction factor | 0.8
CC1(C)C(/C=C(\Cl)C(F)(F)F)C1C(=O)OC(C#N)c1cccc(Oc2ccccc2)c1 (stereo not shown) | human cytosolic CES2 | IVIVE from expressed enzymes | human, liver, in vivo scaled | age-specific |  | enzyme contribution to CLint | 0.02%
CO[C@H]1C[C@@H]2CC[C@@H](C)[C@@](O)(O2)C(=O)C(=O)N2CCCC[C@H]2C(=O)O[C@H]([C@H](C)C[C@@H]2CC[C@@H](OC(=O)NCCOCCOCCOCCOCCOCCOCCOCCOCCC(=O)N3CCc4cc(Cn5nc(-c6ccc7oc(N)nc7c6)c6c(N)ncnc65)ccc4C3)[C@H](OC)C2)C[C@@H](O)[C@H](C)/C=C(\C)[C@@H](O)[C@@H](OC)C(=O)[C@H](C)C[C@H](C)/C=C/C=C/C=C/1C |  |  | patients with advanced solid tumours | intravenous, 10 mg weekly, any grade |  | abdominal pain incidence | 25%
COc1cc2c(Oc3ccc4[nH]c(C)cc4c3F)ccnc2cc1OCC1(N)CC1 |  |  | paediatric recurrent refractory sarcoma | 8 mg/kg |  | grade 1 or 2 Fever | 20%
CCC1(c2ccccc2)C(=O)NC(=O)NC1=O | pooled human hepatocyte co-culture | mRNA induction, refers to: CYP2B6 mRNA |  | 48 h | relative to: vehicle | Emax | 24.5 fold
CC(C)CC(=O)OC[C@H]1O[C@@](C#N)(c2ccc3c(N)ncnn23)[C@H](O)[C@@H]1O | Cytochrome P450 2B6 (CYP2B6, Homo sapiens, UniProt P20813) | metabolic stability | recombinant enzyme | 1 µM |  | intrinsic clearance | 0 µL/min/pmol
OC(CCN1CC=C(c2ccc(F)cc2)CC1)c1ccc(F)c2ccccc12 (stereo not shown) | Salmonella typhimurium | genotoxicity, SOS/umu test | TA1535/pSK1002 | 0.002 mg/mL, 4 h, with S9, lower range |  | induction factor | 0.9
C[C@]1(CO)Cc2ncn(-c3ccc(C#N)c(Cl)c3)c2C(=O)O1 |  |  | human, Chinese | 3 mg single dose |  | subjects with drug-related dizziness | 0%
COc1cc2ncnc(Nc3cccc(Cl)c3)c2cc1OC | HaCaT |  |  | 3.704 µM, 60 h |  | viability | 94% and 92.4% and 94.3%
COc1ccc2c(c1OC)C(=O)c1c(cc(C)c(O)c1OC)C2=O | HK-2 co-cultured with HepaRG | MTT |  | 33.33 µM, 24 h | relative to: untreated control | cell viability | 100 ± 10.3%
CC(=O)N1CCC(C(=O)N2CCN3C(=O)c4cc(-c5ccccc5)ccc4NC(=O)C3C2)CC1 (stereo not shown) | Salmonella typhimurium |  | TA1537 | 15.8 µg/plate, together with: rat liver S9 | relative to: vehicle | fold increase in revertants | 1.4
[Cl-].[Cl-].[Pt+2].[Ru+2].c1ccc(-c2nccnc2-c2ccccn2)nc1.c1cnc2c(c1)ccc1cccnc12.c1cnc2c(c1)ccc1cccnc12 | Danio rerio |  | embryos | 30 µM, 96 h |  | hatching rate | 40 ± 6.1%
O=C1c2ccccc2C(=O)c2ccccc21 | HepaRG co-cultured with HK-2 | MTT |  | 133.33 µM, 24 h | relative to: untreated control | cell viability | 47.5 ± 2.53%
CC1(C)C(C=C(Cl)Cl)C1C(=O)OC(C#N)c1ccc(F)c(Oc2ccccc2)c1 (stereo not shown) | human microsomal CES1 | IVIVE from expressed enzymes | human, liver, in vivo scaled | 0.1 µM, age-specific |  | enzyme contribution to CLint | 57%
Cc1cc(C(=O)NC(C)(C)COc2cccc3c2C(N)=NS(=O)(=O)N3)cc(C)n1 | Salmonella typhimurium | Ames test, initial | TA1535 | 150 µg/plate | relative to: solvent control | revertant ratio | 1.1
Cc1cc2c(c(O)c1O)C(=O)c1c(O)cc(O)cc1C2=O | HK-2 co-cultured with HepaRG | MTT |  | 266.67 µM, 24 h | relative to: untreated control | cell viability | 165 ± 29.3%
COc1cccc(C2(O)CCCCC2CN(C)C)c1 (stereo not shown) |  | joint PK model | human, whole blood | oral, one-compartment metabolite model |  | intercompartmental clearance | 0.0567 L/h
[Cl-].[Cl-].[Pt+2].[Ru+2].c1ccc(-c2nc3cc4ccccc4cc3nc2-c2ccccn2)nc1.c1cnc2c(c1)ccc1cccnc12.c1cnc2c(c1)ccc1cccnc12 | Danio rerio |  | embryos | 75 µM, 48 h |  | hatching rate | 3.33 ± 3.7%
O=c1ccc2ccccc2o1 | NHEK | oxygen consumption rate, Seahorse |  | 6 h |  | point of departure | 406 µM

Some of these lines once more:
Compound | target or system | assay | test system | conditions | scale | quantity | value
COc1cc2ncnc(Nc3cccc(Cl)c3)c2cc1OC | HaCaT |  |  | 3.704 µM, 60 h |  | viability | 94% and 92.4% and 94.3%
